{"data": "Measurements gathered from unrelated publications", "note": "A part holds a random share of what one study measured."}
{"data": "Sample 1", "target": "Prothrombin, mature alpha-thrombin (F2, Homo sapiens, UniProt P00734)", "method": "aptamer microarray, sandwich", "form": "DNA with 2'F-ANA", "matrix": "in vitro", "tested at": "200 nM", "notes": "whole 15-mer aptamer, many near background", "added": "Cy3 exosite-II aptamer, 400 nM", "direction": "higher = stronger binding", "oligonucleotide": "GGTTGGTGTGGTTGG"}
{"Modification": "2'F-ANA at 2 3 4 6 8 10 12 14 15", "mean fluorescence intensity [a.u.]": 148}
{"Modification": "2'F-ANA at 6 8 9 15", "mean fluorescence intensity [a.u.]": 524}
{"Modification": "2'F-ANA at 3 4 5 6 9 10 13", "mean fluorescence intensity [a.u.]": 46.7}
{"Modification": "2'F-ANA at 3 4 7 9 10 12", "mean fluorescence intensity [a.u.]": 526}
{"Modification": "2'F-ANA at 1 2 3 5 6 10 11 13", "mean fluorescence intensity [a.u.]": 110}
{"Modification": "2'F-ANA at 1 2 3 6 8 10 11 12 13 14", "mean fluorescence intensity [a.u.]": 67.4}
{"Modification": "2'F-ANA at 2 3 5 7 10 11 15", "mean fluorescence intensity [a.u.]": 59.8}
{"Modification": "2'F-ANA at 2 6 8 10 11 12 13 15", "mean fluorescence intensity [a.u.]": 139}
{"Modification": "2'F-ANA at 1 4 5 8 9 15", "mean fluorescence intensity [a.u.]": 64.3}
{"Modification": "2'F-ANA at 1 2 4 7 8 11 12 13 15", "mean fluorescence intensity [a.u.]": 189}
{"Modification": "2'F-ANA at 1 2 3 5 7 8 10 11 13", "mean fluorescence intensity [a.u.]": 45.6}
{"Modification": "2'F-ANA at 3 6 8 9 11 12 13 14 15", "mean fluorescence intensity [a.u.]": 482}
{"Modification": "2'F-ANA at 2 3 5 6 7 8 9 10 13 14 15", "mean fluorescence intensity [a.u.]": 52}
{"Modification": "2'F-ANA at 1 2 3 5 7 8 10 11 13 14 15", "mean fluorescence intensity [a.u.]": 61.9}
{"Modification": "2'F-ANA at 2 3 4 5 6 7 8 9 10 12 13 15", "mean fluorescence intensity [a.u.]": 51.4}
{"Modification": "2'F-ANA at 2 3 4 5 6 9 10 11 12 13", "mean fluorescence intensity [a.u.]": 53.7}
{"Modification": "2'F-ANA at 3 4 6 8 10 11 12 13 14 15", "mean fluorescence intensity [a.u.]": 128}
{"Modification": "2'F-ANA at 4 7 11 13 15", "mean fluorescence intensity [a.u.]": 204}
{"Modification": "2'F-ANA at 1 4 10 12 13 14 15", "mean fluorescence intensity [a.u.]": 42.9}
{"Modification": "2'F-ANA at 1 2 3 7 8 9 11 15", "mean fluorescence intensity [a.u.]": 251}
{"Modification": "2'F-ANA at 1 10 11", "mean fluorescence intensity [a.u.]": 53.1}
{"Modification": "2'F-ANA at 1 2 3 4 6 7 9 12 13", "mean fluorescence intensity [a.u.]": 176}
{"Modification": "2'F-ANA at 1 2 4 6 9 11 12", "mean fluorescence intensity [a.u.]": 178}
{"Modification": "2'F-ANA at 3 6 10 11 13 14 15", "mean fluorescence intensity [a.u.]": 381}
{"Modification": "2'F-ANA at 1 2 3 5 12 13 15", "mean fluorescence intensity [a.u.]": 82.1}
{"data": "Sample 2", "target": "Ras GTPase-activating protein-binding protein 1, full length (G3BP1, Homo sapiens, UniProt Q13283)", "method": "RNA Bind-n-Seq", "form": "RNA", "matrix": "in vitro", "tested at": "200 nM", "notes": "whole 134-nt RNA, ends assumed", "added": "150 mM KCl", "baseline": "input library", "direction": "higher = stronger binding", "shared flanks, not repeated": "GGGAGUUCUACAGUCCGACGAUC … UGGAAUUCUCGGGUGUCAAGG", "UniProt Q13283, sequence (whole entry, looked up)": "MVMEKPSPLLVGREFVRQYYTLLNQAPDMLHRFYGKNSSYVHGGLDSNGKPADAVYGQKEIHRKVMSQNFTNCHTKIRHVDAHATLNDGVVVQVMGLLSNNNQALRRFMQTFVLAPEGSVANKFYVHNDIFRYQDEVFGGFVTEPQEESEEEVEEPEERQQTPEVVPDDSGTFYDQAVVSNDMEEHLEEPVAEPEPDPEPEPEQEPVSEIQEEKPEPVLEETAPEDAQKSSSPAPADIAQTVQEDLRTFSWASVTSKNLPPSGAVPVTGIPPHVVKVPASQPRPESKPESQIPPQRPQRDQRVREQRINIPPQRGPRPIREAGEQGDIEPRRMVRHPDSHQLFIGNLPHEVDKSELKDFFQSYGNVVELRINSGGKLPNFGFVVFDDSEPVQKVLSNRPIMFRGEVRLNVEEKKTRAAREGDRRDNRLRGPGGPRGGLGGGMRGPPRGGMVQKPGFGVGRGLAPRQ"}
{"Oligonucleotide": "AGUCCUGUGCUACACAUCGUAUGUACCGAAUCGGAAAAAGGAAAAAGGGGAAAAAGGAAAGUAUUAUGUUACGCCGUUCGGAUCUGCACU", "log2 enrichment": -0.977}
{"Oligonucleotide": "GUCCUGUGCUACACAUCGUAUGUACCGAAUCAAACCCCCCCAAAUUUAAACCCCCAAAAAAGUAUUAUGUUACGCCGUUCGGAUCUGCAC", "log2 enrichment": -0.0255}
{"Oligonucleotide": "CCUGUGCUACACAUCGUAUGUACCGAAUCGGGGAGGGGAAAAAAAGGGGAAAAAAAGGGGAAAGUAUUAUGUUACGCCGUUCGGAUCUGC", "log2 enrichment": 0.0948}
{"Oligonucleotide": "ACCAUGCAGGUGGGCAUCUUUGGGAAGUGGGGCAAGGGGGGGAUAGGGAGGGGGGUAAGACUUUGGGAACAGGUGGUCCCAGGUCGUUUC", "log2 enrichment": 1.25}
{"Oligonucleotide": "UCCUCAAGUCCUGUGCUACACAUCGUAUGUACCGAAUCGGGGAGGGAGGAGGAAAGUAUUAUGUUACGCCGUUCGGAUCUGCACUUCCAG", "log2 enrichment": 0.417}
{"Oligonucleotide": "UUAAGACAGUCAUUUUAAAAUGGUGGCUGAAUUUCCCAACCCACCCCCAAACUAAACACUAAGUUUAAUUUUCAGCUCCUCUGUUGGACA", "log2 enrichment": 0.311}
{"Oligonucleotide": "ACCAUGCAGGUGGGCAUCUUUGGGAAGUGGGGCAAGGGGGGGAUAAAGAGGGGGGUAACACUUUGGGAACAGGUGGUCCCAGGUCGUUUC", "log2 enrichment": 0.787}
{"Oligonucleotide": "GUCCUGUGCUACACAUCGUAUGUACCGAAUCGGGCCCCCGGGCCCCCGGGCCCCCGGGGAAAGUAUUAUGUUACGCCGUUCGGAUCUGCA", "log2 enrichment": -0.884}
{"Oligonucleotide": "UCAAGUCCUGUGCUACACAUCGUAUGUACCGAAUCGGGGAAGGGGAAGGAAGGGGAAAGUAUUAUGUUACGCCGUUCGGAUCUGCACUUC", "log2 enrichment": 0.463}
{"Oligonucleotide": "ACCAUGCAGGUGGGCAUCUUUGGGAAGUGGGGCAAGGGGGGGAUAGGGAGGGGGGUAACACUUUGUGAACAGGUGGUCCCAGGUCGUUUC", "log2 enrichment": 1.43}
{"data": "Sample 3", "target": "RING finger protein unkempt homolog, zinc fingers 1-6, SBP tag (UNK, Homo sapiens, UniProt Q9C0B0, residues 30-357)", "method": "RNA Bind-n-Seq", "form": "RNA", "matrix": "in vitro", "tested at": "100 nM", "notes": "RNA with constant flanks, vertebrate orthologous sites, ends assumed", "baseline": "input RNA pool", "direction": "higher = stronger binding", "shared flanks, not repeated": "GGGAGUUCUACAGUCCGACGAUC … CAACAGAGGAUUGAGCAUCA", "UniProt Q9C0B0, sequence (30-357, looked up)": "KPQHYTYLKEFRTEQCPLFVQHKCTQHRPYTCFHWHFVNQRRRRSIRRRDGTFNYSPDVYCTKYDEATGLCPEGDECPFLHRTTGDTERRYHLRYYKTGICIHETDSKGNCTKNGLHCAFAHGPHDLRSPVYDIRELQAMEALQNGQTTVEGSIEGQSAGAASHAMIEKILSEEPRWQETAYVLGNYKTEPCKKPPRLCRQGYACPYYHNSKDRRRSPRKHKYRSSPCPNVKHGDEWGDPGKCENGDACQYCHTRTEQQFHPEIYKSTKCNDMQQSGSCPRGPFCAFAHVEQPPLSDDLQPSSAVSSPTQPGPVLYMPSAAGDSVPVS"}
{"Oligonucleotide": "GAGCUAAAGGAGUUAGCAUCUUUAUUUUUGUAUCAAAAAUAAAGGUUAUUUUGAAAUUAUUAGGAUUUUUACACAAUUCUGAAAUCUGUUGCUUUUGUAAACAAAUUGUUUGAUCUUAGU", "bound/input enrichment": "0.793 ratio"}
{"Oligonucleotide": "AGCAACUCAAGGAUUCAGGACUGGUUUUACAAAUAUCCCAAGUAGAUAUGGAACUAGCACUCGAGGUCAACCACAUCCAUAAUAAACUCUAAUUUGUAUUAUUUAUUAUACUUAAGGGUA", "bound/input enrichment": "0.613 ratio"}
{"Oligonucleotide": "UGCACAUGCGCUAUCACCAAAACCAAACUGCCACUUUUCAAAUUUCAUUCAGAACCAUUUGUGUCUCCUAUUCCCUACCCUUCCCACCUGUUUCAAUGAUGAAAUAUUUCUGUUCUCCUU", "bound/input enrichment": "1.48 ratio"}
{"Oligonucleotide": "AAAUUUAUUUCAUGCCCUGGACGCCAUAUCGCACUGAUACUUUAAUAGAAUAUGCUUCUUUAGAAGAUUUUCAAAACAGCCGACAAACAACAACAUACAAACUUCCAAAUCGAGUAGAUG", "bound/input enrichment": "1.35 ratio"}
{"Oligonucleotide": "ACGUAGAGAAAAAUCUCAUGGACCCCUCCCCCAAUUUGUGAAACUCCCUAGAAAUUUAUUUGGAAUCUUAAUUUUUCUAAUUCAGGCUCACUGCAUUAGUCAUUUUUAGCCCCUAAUUAA", "bound/input enrichment": "2.06 ratio"}
{"Oligonucleotide": "UUGGGAACAGCUCUCCAAAUAGGAAUAGUAGUAAAAAAAAUAAGCAAAAUGAUAUUUGUAUAGAAAAAACAGAAGUUAAAUCAUGUAAAGUAAAUGCUACCAACCUUCCAGGUCCUAAAG", "bound/input enrichment": "1.32 ratio"}
{"Oligonucleotide": "UUAAAGUCAUUUUUUUCAUGUUUCCUGUAAAUAAUGGAUAAUCAUUUUUAUUUUAUUUUUAAGUGCUGUUUUAACAAUGUGGAUAGACCAUAAAUGUACUUGCUGAAUUCAUUCAUUUUU", "bound/input enrichment": "0.286 ratio"}
{"Oligonucleotide": "UCUACUGACCACUCACUAUUAUGUCUGGAUAUCUGUAAACACUUUUCUUUUUCUUCUUAGUCUUUUUCUUGUAUAAUUGAUGUUCUCUUAAAAUUGUUAAUGUAUCACAGGGCCGCUCUU", "bound/input enrichment": "1.92 ratio"}
{"Oligonucleotide": "UUCUAGUACUUAAGCCAAUAGUUCUAAAAUGCUAUUUAUUUGUGUCUGUAAGUUUGUACAUAGUAAUUCCAGCCUCGUUGCGGAAUUAUUUUUUCAUGCAUUUGAGUUUUGCUUGAAAUU", "bound/input enrichment": "0.393 ratio"}
{"Oligonucleotide": "UCUGUGUAGCAAUUAGAGUGGGUGCUCCCACUCAUCCUGUCCCAAGGAAGAAAGCUCAAAUAGGUGCUUUACACGCCUGAUUAUGCUGUUCUGUUUCUGUUUUCUAUUUUUACAUACACA", "bound/input enrichment": "0.689 ratio"}
{"Oligonucleotide": "ACAUCAUGGGUUACUCUCAUUUCUGUAGCAGAUAGAACAUUUUGCAAAACAUGUAUACACCUGGCUAAGCUGAAUAUAUUUUUAUUAGCCUGUAAAUAAAUAUACUCUUCUGCAUUGCAC", "bound/input enrichment": "0.375 ratio"}
{"data": "Sample 4", "target": "RNA binding protein fox-1 homolog 2, RRM domain, GST-SBP tag (RBFOX2, Homo sapiens, UniProt O43251-10, residues 100-194)", "method": "RNA Bind-n-Seq", "form": "RNA", "matrix": "in vitro", "tested at": "365 nM", "notes": "natural RNA segment, single round, ends assumed", "baseline": "no-protein control", "direction": "higher = stronger binding", "shared flanks, not repeated": "GGGAGUUCUACAGUCCGACGAUC … UGGAAUUCUCGGGUGCCAA", "Construct (chain)": "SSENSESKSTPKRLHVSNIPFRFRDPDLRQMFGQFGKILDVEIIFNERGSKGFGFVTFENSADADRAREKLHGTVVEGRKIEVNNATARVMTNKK"}
{"Oligonucleotide": "GCCUGUUCACUGUUUCAGGCUGCUCAGCACACAUUGGGAGAGGUGGCCAUAUCCCAGAACACUACCUCAUCCACCUGGCAGAGGGAAUUUCUGCUUCAGCCACCAAGCAG", "RBNS enrichment (R)": 0.625}
{"Oligonucleotide": "CACAGGUGAGGCUUUUUUCAGAUCAGUGGCCACCUCUUUUAGUCUGAGGAAUCCCAGAAGCAACCAGAGACCAUCAUAAAUGUCAAAUACCGGAGUCUACCCUGCUUCAC", "RBNS enrichment (R)": 0.455}
{"Oligonucleotide": "CUUCAGAGAUGGAUGAAAGUUUGGAGUGUGCAGGUGCGCAAUCAUUACCAGCUGAGAAGCUCUCCGAAACCGGUGGCUACGGGACUCUUCAGCAUGGAGAGGACACCGUG", "RBNS enrichment (R)": 0.424}
{"Oligonucleotide": "UGUAAAUGGAAAUUUUUCCUUAAAAUACAACACAAUGAUGUCUGUAUAAAUCUGUCUGUUUAGAAUCUGUGCUGUGUAAGGGCAUUCGUACUCAUGCUGUUACUGUACUU", "RBNS enrichment (R)": 0.434}
{"Oligonucleotide": "GCAGCUCCGUGGGGCCCUCCGCCCCAGCCCCAGCCAGCCAGGCCCUGGUGGAAAGGCUGGGAGCCGCACAGCCCUCCCCUCCUGCGCUGGAAACCCUCCCUGACCCCCAC", "RBNS enrichment (R)": 0.378}
{"Oligonucleotide": "GGAGUUUUCACCGUGGUCAUUUCUACCUCCGGAGCAAGGUGCCAGCGCCAGUACUAGAGCCUGCUUAUCCACAUUUGCCCUGGACAGGAGCAGGAGGAAGUCCACUUCUG", "RBNS enrichment (R)": 0.313}
{"Oligonucleotide": "GAAAUAAUUUUAUUUAAUAUAAAUGAUCACAUGUCCUCAAUCAUGAAUGAGGUAGGGAGCCUCUCUCCCCCAGUGGCCAUGUUUACAAAAGUGUGUUUUGUCUAUAAAGU", "RBNS enrichment (R)": 0.64}
{"Oligonucleotide": "ACUGGGCCGGCCACAGUCUGGACCCGCACGUCCUGUUCAAAAGCAGACUCGGGAACUGCCUGAAUGUGGUUUGGGACACGAGACCUCAUCAUAUUGAUGAGCGAACAAAC", "RBNS enrichment (R)": 1.04}
{"Oligonucleotide": "CAACCUUUGUGGGUCGCCUAAGAGCAUCGCAAACCAGAUAUUUACAUUAUGAUUCAUAACAGUGACAAUCACAGUUAUGAGGUAGAAAGGAAAGGGAUUUUAUGGUUGGG", "RBNS enrichment (R)": 0.429}
